{"data": "Published values collected from several papers", "note": "Parts stem from different laboratories: compare values within a part only. Changes are numbered by the printed parent chain."}
{"data": "Sample 1", "target": "ABI1, truncated, D143A, DHFR fusion (Arabidopsis thaliana)", "technique": "DHFR PCA, deep sequencing", "matrix": "yeast", "setting": "methotrexate growth selection, single substitutions", "together with": "(+)-ABA 58 µM", "baseline": "wild-type fitted maximum", "reading": "higher = stronger binding", "parent": "PYL1, truncated, DHFR fusion (Arabidopsis thaliana); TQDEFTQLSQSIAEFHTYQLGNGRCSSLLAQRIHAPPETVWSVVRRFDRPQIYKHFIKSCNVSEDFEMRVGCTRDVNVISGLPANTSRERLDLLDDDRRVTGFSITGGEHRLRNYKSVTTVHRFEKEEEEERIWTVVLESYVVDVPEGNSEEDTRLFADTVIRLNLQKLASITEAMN"}
{"Substitution": "I172E", "relative binding score [%]": 45.6}
{"Substitution": "R132G", "relative binding score [%]": 103}
{"Substitution": "E130A", "relative binding score [%]": 94.1}
{"Substitution": "G23S", "relative binding score [%]": 81.1}
{"Substitution": "L169E", "relative binding score [%]": -0.976}
{"Substitution": "E152R", "relative binding score [%]": 72.6}
{"Substitution": "F56G", "relative binding score [%]": 0.488}
{"Substitution": "R90A", "relative binding score [%]": 50.5}
{"Substitution": "A13H", "relative binding score [%]": 91.2}
{"data": "Sample 2", "target": "DBP, bZIP domain (human)", "technique": "DHFR protein complementation", "matrix": "yeast", "setting": "single substitutions, most at no-binding floor", "baseline": "wild-type JUN-FOS pair", "reading": "higher = stronger binding", "parent": "JUN, bZIP domain (human); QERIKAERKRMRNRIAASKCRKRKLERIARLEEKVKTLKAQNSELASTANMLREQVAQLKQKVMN; partner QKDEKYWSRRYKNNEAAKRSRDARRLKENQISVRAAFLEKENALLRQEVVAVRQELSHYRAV"}
{"Substitution": "L31S", "binding fitness": "-1.5 natural log"}
{"Substitution": "S47F", "binding fitness": "-1.45 natural log"}
{"Substitution": "E32V", "binding fitness": "-1.16 natural log"}
{"Substitution": "S43M", "binding fitness": "-1.49 natural log"}
{"Substitution": "N42V", "binding fitness": "-1.53 natural log"}
{"data": "Sample 3", "target": "Protein C-ets-1 (ETS1, Homo sapiens, UniProt P14921, residues 1-441, full length assumed)", "technique": "protein-binding microarray", "form": "double-stranded DNA, one strand shown", "matrix": "in vitro", "tested at": "not given", "setting": "k-mer, scored over probes, only values ≥0.25", "reading": "higher = stronger binding", "Residues (chain)": "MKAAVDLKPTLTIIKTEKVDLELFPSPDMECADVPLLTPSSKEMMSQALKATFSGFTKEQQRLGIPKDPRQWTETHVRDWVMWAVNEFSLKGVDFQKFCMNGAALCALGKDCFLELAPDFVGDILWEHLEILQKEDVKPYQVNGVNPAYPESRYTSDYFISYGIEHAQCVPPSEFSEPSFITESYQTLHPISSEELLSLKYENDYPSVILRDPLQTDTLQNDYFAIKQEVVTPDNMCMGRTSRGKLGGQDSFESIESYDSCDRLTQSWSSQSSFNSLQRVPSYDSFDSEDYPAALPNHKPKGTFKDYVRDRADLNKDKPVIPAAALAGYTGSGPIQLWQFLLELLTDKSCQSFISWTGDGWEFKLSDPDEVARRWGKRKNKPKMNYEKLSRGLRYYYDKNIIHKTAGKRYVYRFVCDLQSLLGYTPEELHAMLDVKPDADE"}
{"Strand": "AGGATGGG", "E-score": 0.32}
{"Strand": "ACCGGTAA", "E-score": 0.339}
{"Strand": "TCCGTCAA", "E-score": 0.307}
{"Strand": "ACGCATCC", "E-score": 0.424}
{"Strand": "ACGGGACA", "E-score": 0.267}
{"Strand": "GGACGTTA", "E-score": 0.307}
{"Strand": "CTTCCGAC", "E-score": 0.442}
{"Strand": "CAGGATGC", "E-score": 0.466}
{"Strand": "CCCCTCCC", "E-score": 0.287}
{"Strand": "CCGGTAGA", "E-score": 0.258}
{"Strand": "CCAGATCC", "E-score": 0.268}
{"data": "Other studies, line by line"}
{"Molecule": "PhoQ, residues 284 288 289 292 302 303 SACGEM", "target": "PhoP, residues 12 14 15 18 19 MHTVL (Escherichia coli, UniProt P23836)", "assay": "Sort-seq, measured: YFP reporter", "system": "E. coli", "conditions": "PhoQ-PhoP variant library, together with: 10 µM Mg2+", "how to read": "baseline: high Mg2+ state, higher = stronger signaling", "quantity": "fold induction", "value": 18.5}
{"note": "Excerpt of the above (sample 2):"}
{"Substitution": "S43M", "binding fitness": "-1.49 natural log"}
{"Substitution": "S47F", "binding fitness": "-1.45 natural log"}
{"Substitution": "N42V", "binding fitness": "-1.53 natural log"}
{"Substitution": "L31S", "binding fitness": "-1.5 natural log"}
